Measured values from different studies.
Each line is one published result; not all experiments were run side by side. Values joined by “and” are separate records of one study, mostly repeats; a detail may differ. ± gives the spread as reported.
Voltage-dependent P/Q-type calcium channel subunit alpha-1A: Voltage-dependent P/Q-type calcium channel subunit alpha-1A (Homo sapiens, UniProt O00555)
UCHL1: Ubiquitin carboxyl-terminal hydrolase isozyme L1 (UCHL1, Homo sapiens, UniProt P09936)
ADRA2C: Alpha-2C adrenergic receptor (ADRA2C, Homo sapiens, UniProt P18825)
T1: RNA aptamer, 3'-5' linkages; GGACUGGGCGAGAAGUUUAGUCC
T2: G-quadruplex DNA (Homo sapiens); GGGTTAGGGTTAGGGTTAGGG

Compound | tested on | test | system | conditions | how to read | measurement | result
CC[C@@H]1[C@H](F)C(=O)N[C@@H]1COc1nccc2cc(C(N)=O)c(OC)cc12 | ATR (Homo sapiens, UniProt Q13535) | ATP-site probe binding, ActivX profiling | THP-1 cell lysate | 0.2 mM |  | inhibition | -4.2%
N[C@@H](CCC(=O)O)C(=O)O | glc-2 (Caenorhabditis elegans, UniProt Q17328, T283S) | two-electrode voltage clamp | Xenopus laevis oocytes |  |  | median current | 1.1 µA
CC[C@H](C)C(=O)O[C@H]1C[C@H](O)C=C2C=C[C@H](C)[C@H](CC[C@@H](O)C[C@@H](O)CC(=O)O)[C@H]21 | Voltage-dependent P/Q-type calcium channel subunit alpha-1A | ion current, antagonist | HEK293 | 3 µM |  | inhibition | -3%
Nc1ncnc2c1ncn2[C@@H]1O[C@H](COP(=O)(O)OP(=O)(O)OP(=O)(O)O)[C@@H](O)[C@H]1O | P2X purinoceptor 7 (P2rx7, Rattus norvegicus, UniProt Q64663, R125A) | ion current, agonist, two-electrode voltage clamp | Xenopus laevis oocytes | 1500 µM | relative to: highest concentration response | normalized current | 1
O=C(CCl)NCCc1nc2ccccc2s1 | UCHL1 | covalent, intact protein LC-MS |  | 12.5 µM |  | labelling | 10.4%
Cc1nc(CSc2nc(SCc3ccc(C(C)C)cc3)nc(=O)[nH]2)cs1 | TOP2B (Homo sapiens, UniProt Q02880) | decatenation |  | 15.6 µM, replicate 1 |  | decatenated DNA | 81.5%
O=S(=O)(Nc1c(Cl)ccc2c1OCO2)c1cc(Cl)cc(Cl)c1O | malate dehydrogenase | enzyme activity, inhibitor |  | 200 µM, pH 7.0, 1% DMSO, aggregation counter-screen |  | remaining activity | 99%
CCOc1ccc(NC(=O)C(C#N)=Cc2ccc(-c3ccc(Cl)cc3)o2)cc1 | UCHL1 | covalent, intact protein LC-MS |  | 12.5 µM |  | labelling | 15.7%
CCC(C)(C)C(=O)O[C@H]1C[C@@H](C)C=C2C=C[C@H](C)[C@H](CC[C@@H]3C[C@@H](O)CC(=O)O3)[C@H]21 | Voltage-dependent P/Q-type calcium channel subunit alpha-1A | ion current, antagonist, automated patch clamp |  |  |  | IC30 | 1.58 µM
CC#CC(=O)NC1CCCN(C(=O)c2ccc(C(F)(F)F)cc2)C1 (stereo not drawn) | UCHL1 | covalent, intact protein LC-MS |  | 12.5 µM |  | labelling | 21.5%
Nc1nc2c(ncn2[C@@H]2O[C@H](COP(=O)(O)O)[C@@H](O)[C@H]2O)c(=O)[nH]1 | GUK1 (Homo sapiens, UniProt Q16774, R41A) | enzyme activity, NADH-coupled |  | 500 µM |  | reaction rate | 0.654 s⁻¹ and 1.41 s⁻¹ and 0.818 s⁻¹
CC/C=C(\C)C=O | Uncharacterized protein PH0856 (Pyrococcus horikoshii, UniProt O58586) | substrate |  | pH 7, 40 °C, anaerobic, shaking 300 rpm, added: NADPH |  | conversion | 37%
Nc1ccc(C(=O)O)cc1 | BEST1, with wild-type BEST1 (Homo sapiens, UniProt O76090, L234P) | ion current, whole-cell patch clamp | HEK293 co-expressing mutant and wild-type | concentration not given, voltage -40 mV |  | current density | -10.7 pA/pF and -5.74 pA/pF and -8.27 pA/pF and -21.1 pA/pF and -6.12 pA/pF and -3.35 pA/pF
COc1cc(-c2cncc3c2CN(C)Cc2cc(N4CCNCC4)ccc2-3)cc(OC)c1OC | EPHA7 (Homo sapiens, UniProt Q15375) | kinase activity |  | 1 µM, human enzyme, added: ATP 10 µM | relative to: DMSO control | remaining activity | 113%
Cc1cc(Oc2ncccc2CN2CCN(c3ccc(C(F)(F)F)cc3[N+](=O)[O-])CC2)ccc1-c1c(C)c(=O)[nH]c(=O)n1C | ADRA2C | binding, radioligand binding |  | added: [3H]rauwolscine | relative to: Ki alpha2B over Ki alpha2C | selectivity ratio | 3
Cc1ccc(N2C(=O)C3C4c5ccccc5C(C=O)(c5ccccc54)C3C2=O)cc1 (stereo not drawn) | UCHL1 | covalent, intact protein LC-MS |  | 12.5 µM |  | labelling | 9.55%
CC(=O)N[C@@H](Cc1c[nH]cn1)C(=O)N[C@@H](CC(=O)O)C(=O)N1CCC[C@H]1C(=O)N1CCC[C@H]1C(=O)N[C@@H](CC(C)C)C(=O)N[C@@H](Cc1c[nH]cn1)C(=O)N[C@@H](CO)C(=O)N[C@H](C(=O)N[C@@H](C)C(N)=O)[C@@H](C)OP(=O)(O)O | PLK1 (Homo sapiens, UniProt P53350) | polo-box domain binding, isothermal titration calorimetry |  | concentration not given, 25 °C |  | binding enthalpy | -14.8 ± 0.09 kcal/mol
O=C1CC2(CCCC2)CC(=O)N1CCCCN1CCN(c2ncccn2)CC1 | Voltage-dependent P/Q-type calcium channel subunit alpha-1A | ion current, antagonist | HEK293 | 3 µM |  | inhibition | 7%
Cc1ncsc1-c1ccc(CNC(=O)[C@@H]2C[C@H](O)CN2C(=O)[C@@H](NC(=O)C2(F)CC2)C(C)(C)C)c(OCCc2ccc(CN3CCN(c4cc(-c5ccccc5O)nnc4N)CC3)cc2)c1 | SMARCA2 bromodomain, human | ternary complex binding, TR-FRET competition |  | added: VCB R69A mutant |  | cooperativity factor alpha | 1.3
COc1cc(C)[nH]c(=O)c1CN1CCc2c(Cl)cc([C@H](OC)C3COC3)c(Cl)c2C1=O | EZH2 (Homo sapiens, UniProt Q15910) | binding |  | basal PRC2 without H3K27me3 peptide |  | residence time | 10.9 h
NCC[C@H](O)C(=O)N[C@@H]1C[C@H](N)[C@@H](O[C@H]2O[C@H](CN)[C@@H](O)[C@H](O)[C@H]2O)[C@H](O)[C@H]1O[C@H]1O[C@H](CO)[C@@H](O)[C@H](N)[C@H]1O | T1, RNA aptamer, 3'-5' linkages | ITC |  |  |  | Kd | 10 µM

Compound | tested on | test | system | conditions | how to read | measurement | result
Cc1cn(C2CCN(Cc3cccc(Oc4cc(Cl)cc(Cl)c4)c3)CC2)c(=O)[nH]c1=O | Thymidylate kinase (DTYMK, Homo sapiens, UniProt P23919) | enzyme activity, inhibitor |  | no inhibition observed |  | highest concentration tested | > 40 µM
CNC(=O)[C@H](CNC(=O)c1cccc(COc2ccccc2C(N)=O)c1)NC(=O)COc1cc(C)cc2oc(=O)c3c(c12)CCC3 | TNKS (Homo sapiens, UniProt O95271) | enzyme activity, inhibitor |  |  |  | ligand efficiency | 0.31
CC(C)OCCn1c(=S)[nH]c(=O)c2[nH]ccc21 | Myeloperoxidase (MPO, Homo sapiens, UniProt P05164) | inhibitor, cholesteryl ester hydroperoxide |  | 0.0046 µM | relative to: control | LDL lipid peroxidation | 96% and 126% and 99% and 103%
O=C(Nc1cccc(-c2nnco2)c1)N1CCSSCC1 | UCHL1 | covalent, intact protein LC-MS |  | 12.5 µM |  | labelling | 18.8%
O=C(Nc1ccccc1Oc1nc2ccccc2n2cnnc12)c1cccs1 | Catenin beta-1, residues 141-305 (CTNNB1, Homo sapiens, UniProt P35222) | ITC |  | 25 °C |  | ΔH | -2.8 kcal/mol
O=S(=O)(Nc1ccc(OC2CCOC2)nc1)c1cccc(Cl)c1O (stereo not drawn) | malate dehydrogenase | enzyme activity, inhibitor |  | 200 µM, pH 7.0, 1% DMSO, aggregation counter-screen |  | remaining activity | 102%
NCCCCC(=O)O | SLC6A6 (Homo sapiens, UniProt P31641, Y138A) | binding, microscale thermophoresis |  | 35.1 nM, fitted curve | higher = more binding | fraction bound | 0
N#CC(=Cc1cccc(O)c1)C(=O)NCCc1ccccc1 | UCHL1 | covalent, intact protein LC-MS |  | 12.5 µM |  | labelling | 15.5%
Nc1ncnc2c1ncn2[C@@H]1O[C@H](COP(=O)(O)OP(=O)(O)OP(=O)(O)O)[C@@H](O)[C@H]1O | Acyl-coenzyme A oxidase acox-1.1 (acox-1.1, Caenorhabditis elegans, UniProt O62140) | substrate, HPLC |  | 200 µM, added: FAD, no acyl-CoA oxidase |  | hydrolysis rate | 0.00583 s⁻¹
C=CC(=O)N1CCC(COCC(=O)N2CCN(c3nc(-c4cnc(N)nc4C(F)F)nc(N4CCOC[C@@H]4C)n3)CC2)CC1 | CDK13 (Homo sapiens, UniProt Q14004) | KINOMEscan |  | 1 µM | relative to: DMSO control | remaining binding | 96%
Cn1cc(NC(=O)CCl)c(C(=O)NC2CCC2)n1 | UCHL1 | covalent, intact protein LC-MS |  | 12.5 µM |  | labelling | 15.9%
Nc1ncnc2c1ncn2[C@@H]1O[C@H](COP(=O)(O)CP(=O)(O)OP(=O)(O)O)[C@@H](O)[C@H]1O | P2X purinoceptor 1 (P2RX1, Homo sapiens, UniProt P51575, L218T) | calcium influx |  | 31.6 nM | relative to: ionomycin response | calcium influx | 14.8% and 7.3% and 6.77%
N#Cc1ccc2[nH]cc(CCCCN3CCN(c4ccc5oc(C(N)=O)cc5c4)CC3)c2c1 | SLC6A4 (Homo sapiens, UniProt P31645, F556A/I172M) | [3H]5-HT uptake, inhibitor | COS-7 |  |  | Hill coefficient | 1.15 ± 0.14
O=C(C[C@@H](C(F)F)n1ccc(F)n1)N1CCC(O)(Cn2cnc3c(cnn3-c3ccc(F)cc3)c2=O)CC1 | USP7 (Homo sapiens, UniProt Q93009, V517G) | isothermal titration calorimetry |  | concentration not given, USP7 V517G |  | binding enthalpy | -16.3 ± 0.329 kcal/mol
CCC(=O)NS(=O)(=O)c1ccc(-c2c(-c3ccccc3)noc2C)cc1 | HNF4A (Homo sapiens, UniProt P41235) | reporter gene, Gal4 hybrid reporter |  | 50 µM | relative to: vehicle | activation | 0.38 fold
COc1ccccc1N1CCN(Cc2cccnc2Oc2ccc(-c3c(C)c(=O)[nH]c(=O)n3C)c(C)c2)CC1 | ADRA2C | binding, radioligand binding |  | added: [3H]rauwolscine | relative to: Ki alpha2A over Ki alpha2C | selectivity ratio | 3
c1cc(-c2nc(NCCN3CCCC3)c3ccccc3n2)nc(-c2nc(NCCN3CCCC3)c3ccccc3n2)c1 | T2, G-quadruplex DNA (Homo sapiens) | FRET melting |  | 1 µM, pH 7.2, KCl 10 mM |  | ΔTm | > 15 °C
Cc1cc(Cl)c(O)c(NS(=O)(=O)c2cc(Cl)cc(Cl)c2O)c1F | malate dehydrogenase | enzyme activity, inhibitor |  | 200 µM, pH 7.0, 1% DMSO, aggregation counter-screen |  | remaining activity | 89%
NC(=O)c1ccc[n+]([C@@H]2O[C@H](COP(=O)([O-])OP(=O)(O)OC[C@H]3O[C@@H](n4cnc5c(NCCNC(=O)CCCCCNC(=O)CCCCCNC(=O)CCCC[C@@H]6SC[C@@H]7NC(=O)N[C@@H]76)ncnc54)[C@H](O)[C@@H]3O)[C@@H](O)[C@H]2O)c1 | PARP3 (Homo sapiens, UniProt Q9Y6F1) | substrate, DELFIA auto-modification |  |  |  | apparent Km | 8 µM
Cc1c(Cc2ccccc2)c(NCCN(C)C)n2c(nc3ccccc32)c1C#N | Trypanosoma cruzi | reporter translation, Renilla luciferase mRNA translation | cell-free extract | 40 µM | relative to: DMSO | inhibition | -7.8%
Cc1cc(Oc2ncccc2CN2CCN(c3ccc(C(F)(F)F)cn3)CC2)ccc1-c1c(C)c(=O)[nH]c(=O)n1C | ADRA2C | binding, radioligand binding |  | added: [3H]rauwolscine | relative to: Ki alpha2A over Ki alpha2C | selectivity ratio | 5
